Results from different studies.
Each line is one published result; not all experiments were run side by side. Values joined by “and” are separate records of one study, mostly repeats; a detail may differ. ± gives the spread as reported.

`[Cl][111In]([Cl])[Cl]`: “nucleic fraction share” 7% (U2OS-53BP1; 18 h, subcellular fraction f3).
The inhibition of `Cc1nn(-c2nc3ccccc3s2)c(O)c1C(c1ccccc1C(=O)O)c1c(C)nn(-c2nc3ccccc3s2)c1O` is reported as 38.3% and 39.7% and 39.5% (THP1-Dual; IFN luciferase reporter; 20 µM, together with: HT-DNA).
With `CCCC1=C(C(=O)OCC)C(c2ccc(Cl)cc2C)C2=C(CC(c3ccc(OC)c(OC)c3)CC2=O)N1` (stereo not shown) the EC50 was > 20 µM (J774.A1; cytotoxicity).
The EC50 of `NS(=O)(=O)OC[C@@H]1C[C@@H](n2ccc3c(N[C@H]4CCc5ccccc54)ncnc32)C[C@@H]1O` is reported as 0.0527 µM (BRD4-HiBiT cells; BRD4 degradation rescue, inhibitor; 24 h, together with: dBET6 500 nM).
`N#C/C(=C\c1c[nH]nc1-c1ccc(Cl)c(Cl)c1)C(=O)O` — result for mRNA level: “decreased” (LX-2; qPCR, refers to: FN1; 10 µM, hepatic stellate cell activation, together with: TGFβ; relative to: untreated).
For `CCOC(=O)C1=C(C)NC2=C(C(=O)OC(c3cccc(OC)c3)C2)C1c1ccccc1Cl` (mixture of isomers), the EC50 was > 20 µM (J774.A1; cytotoxicity).
`CC(C)NCC(O)c1ccc(O)c(O)c1` (stereo not shown) has a sarcomere length of 1.74 µm (mouse ventricular cardiomyocytes; dose not given, 0.203 s).
Under “HTRF cAMP signal”, `CCCCC[C@H](O)/C=C/[C@H]1C(=O)C[C@H](O)[C@@H]1C/C=C\CCCC(=O)O` is recorded as 321 a.u. and 312 a.u. and 326 a.u. (HEK293-A2AR cells, SLCO2A1 knockout; HTRF cAMP; 500 nM).
`C[C@@H](O)[C@H](NC(=O)Nc1ncnc2c1ncn2[C@@H]1O[C@H](CO)[C@@H](O)[C@H]1O)C(=O)O` gave an AP-TGFα release of 0.92% and -0.794% and 0.191% (mock-transfected cells; TGFα shedding, agonist; 10 µM; relative to: unstimulated vehicle control).
`Cn1cc(Nc2nccc(-c3ccc4c(c3)CN(C3COC3)CC[C@H]4NC(=O)c3cn(C(C)(C)C)nn3)n2)cn1` — result for “number of downregulated genes”: 305 (human B cells; 100 nM, 64 h, stimulation-upregulated genes, together with: CpG ODN2006).
With `O=C(/C=C/C=C/C=C/C1CCCCC1)NC1=C[C@@](O)(/C=C/C=C/C=C/C(=O)NC2=C(O)CCC2=O)[C@@H]2O[C@@H]2C1=O` the GI50 was 26.1 µM (KYSE-410; cell growth, CellTiter-Glo; 78 h).
For `COc1cc(/C=C/C(=O)N2CCC=CC2=O)cc(OC)c1OC`, the mRNA level was 130 ± 4.5% (MDA-MB-468; quantitative RT-PCR, refers to: HIF1A; 30 µM, 8 h; relative to: untreated cells).
With `Cc1nn(-c2nc3c(F)cc(F)cc3s2)c(O)c1C(c1ccccc1C(F)(F)F)c1c(C)nn(-c2nc3c(F)cc(F)cc3s2)c1O` the inhibition was 101% (THP1-Dual; IFN luciferase reporter; 40 µM, together with: HT-DNA).
Under cell migration, `O=C(NN=Cc1ccc(Cl)cc1)C1CC(=O)N(c2ccc(F)cc2F)C1` (stereo not shown) is recorded as “inhibited” (PPC-1; wound healing; 10 µM, 12 h).
`CCCN1CCN(c2ccc3[nH]c(-c4ccc5[nH]c(-c6ccc(C(F)(F)F)cc6)nc5c4)nc3c2)CC1` has a growth percent of -89% (MDA-MB-435; SRB; 10 µM, 48 h).
`CCN(CC)C(=O)N1CCN(C)CC1` has a viability of 53.3% and 54.4% (MDA-MB-231 BAX/BAK siRNA knockdown; CellTiter-Glo; concentration not given; relative to: normalised luminescence).
For `CC(C)C[C@H](NC(=O)CNC(=O)c1cc(Cl)ccc1Cl)B(O)O`, the EC50 was 0.198 µM (BRD4-HiBiT cells; BRD4 degradation rescue, inhibitor; 4 h, together with: dBET6 500 nM).
For `Cc1cc(Nc2ncc(Cl)c(Nc3ccccc3S(=O)(=O)C(C)C)n2)c(OC(C)C)cc1C1CCNCC1`, “log2 fold change” read -4.03 (CLB-BAR; phosphoproteomics LC-MS/MS, refers to: RPS6 phosphorylation; 200 nM, 60 min; relative to: untreated).
For `O=c1[nH]nc(OCCCc2ccc(Cl)cc2)c(NCc2cccnc2)c1Br`, “normalized enrichment score” read -1.72 (HEK-293T; RNA-seq GSEA, refers to: HALLMARK_INTERFERON_GAMMA_RESPONSE; concentration not given; direction not given).
`Clc1nc(NCc2ccco2)c2[nH]cnc2n1` has a ΔPSI of -0.28 (iPSC-derived cardiomyocytes; RNA-seq, refers to: ADGRB2 chr1 exon ending 31728081; unit not given; relative to: DMSO minus compound).
For `CC(C)(C)c1ccc(C(O)CCCN2CCC(C(O)(c3ccccc3)c3ccccc3)CC2)cc1` (stereo not shown), the viability was 7.33% and 3.79% (MDA-MB-231 BAX/BAK siRNA knockdown; CellTiter-Glo; concentration not given; relative to: normalised luminescence).
With `CCn1cc(-c2cc(Cn3ccoc3=N)cc3c2CCN([C@@H](C)c2cc(OC)ccn2)C3=O)c(C(F)(F)F)n1` the EC50 was > 30 µM (KP3; cell growth; 120 h).
The viability of `O=P(O)(O)C(O)(Cn1ccnc1)P(=O)(O)O` is reported as 101 ± 1% (hFOB 1.19; AlamarBlue; 3.8 µM, 24 h; relative to: control).
For `CCCCN1C[C@H](O)[C@@H](O)[C@@H](O)[C@H]1CO`, the IC50 was 10.2 µM (sample B patient fibroblasts; Gb3 level lowering, LC-MS/MS, refers to: Gb3 d18:1/20:0; 216 h).
`CC[C@H](C)[C@H](NC(=O)[C@H](C)NC(=O)CNC(=O)[C@H](Cc1ccccc1)NC(=O)[C@H](CC(N)=O)NC(=O)[C@H](CC(N)=O)NC(=O)[C@H](CO)NC(=O)[C@H](CO)NC(=O)[C@H](Cc1c[nH]cn1)NC(=O)[C@@H](NC(=O)[C@H](CC(C)C)NC(=O)[C@H](Cc1ccccc1)NC(=O)[C@H](CC(N)=O)NC(=O)[C@H](C)NC(=O)[C@H](CC(C)C)NC(=O)[C@H](CCCNC(=N)N)NC(=O)[C@H](CCC(N)=O)NC(=O)[C@@H](NC(=O)[C@H](C)NC(=O)[C@@H]1CSSC[C@H](NC(=O)[C@@H](N)CCCCN)C(=O)N[C@@H](CC(N)=O)C(=O)N[C@@H]([C@@H](C)O)C(=O)N[C@@H](C)C(=O)N[C@@H]([C@@H](C)O)C(=O)N1)[C@@H](C)O)C(C)C)C(=O)N[C@@H](CC(C)C)C(=O)N[C@@H](CO)C(=O)N[C@@H](CO)C(=O)N[C@H](C(=O)N[C@@H](CC(N)=O)C(=O)N[C@H](C(=O)NCC(=O)N[C@@H](CO)C(=O)N[C@@H](CC(N)=O)C(=O)N[C@H](C(=O)N[C@@H](Cc1ccc(O)cc1)C(N)=O)[C@@H](C)O)C(C)C)[C@@H](C)O` — result for “intracellular ROS level”: 6.33 (INS-1; flow cytometry; 1 µM, unit not given; relative to: control).
For `C[C@H](CCC(=O)NCCS(=O)(=O)O)[C@H]1CC[C@H]2[C@@H]3CC[C@@H]4C[C@H](O)CC[C@]4(C)[C@H]3CC[C@]12C`, the proliferation increase was 72% (human ADPKD PLD cystic cholangiocytes; cell confluence; 20 µM, 48 h; relative to: untreated).
`Cc1nn(-c2nc3c(F)cc(F)cc3s2)c(O)c1C(c1ccccc1C(=O)O)c1c(C)nn(-c2nc3c(F)cc(F)cc3s2)c1O` gave an inhibition of 24.8% and 30.8% and 21.2% (THP1-Dual; IFN luciferase reporter; 20 µM, together with: HT-DNA).
`COc1ccc(NC(=S)N/N=C/c2cccc3cc4ccccc4nc23)cc1` — result for “early apoptotic cells”: 10.6% (HeLa; annexin V/PI; concentration not given, 48 h, dosed at IC25).
With `Cn1cc(-n2cnc3c(NCc4nc5cc(Cl)c(Cl)cc5[nH]4)nc(N4CCOCC4)nc32)cn1` the mRNA level was 0.894 (MDA-MB-231; qRT-PCR, refers to: FANCD2; 50 nM, 6 h, unit not given; relative to: untreated).
For `CCOC(=O)C1=C(C)NC2=C(C(=O)OC(c3ccc(OC)c(OC)c3)C2)C1c1ccc(Br)cc1` (mixture of isomers), the EC50 was > 20 µM (J774.A1; cytotoxicity).
`CC#CC(=O)N1CCC[C@H]1c1nc(-c2ccc(C(=O)Nc3ccccn3)cc2)c2c(N)nccn12` gave a maximum inhibition of 62.5% (TMD8; calcium flux, FLIPR; 1 h preincubation, together with: anti-IgM).
For `C=Cc1c2[n-]c(c1C)/C=c1\[n-]/c(c(C)c1C=C)=C\c1[n-]c(c(CCC(=O)O)c1C)/C=c1\[n-]c(c(C)c1CCC(=O)O)=C2.[Sn+4]`, the fold change was 2.84 (SH-SY5Y; RNA-seq, refers to: CD274 mRNA; 5 µM, 5 h; relative to: untreated cells).
`Cc1nc(NC(=O)N2CCC[C@H]2C(N)=O)sc1-c1ccnc(C(C)(C)C(F)(F)F)c1` gave an IC50 of 3.08 µM (MKN-1; CellTiter-Glo; 120 h).
`CC(=O)Nc1cc(Oc2ccc3c(nc(Nc4ccc(F)cc4F)n3C)c2C)ccn1`: cell proliferation “inhibited” (MHHCALL4 B-ALL cells; CellTiter-Glo; concentration not given, 3 d).
For `Cl.Fc1ccc(Oc2ccc(Nc3ccc4ncc(OCC5CCNCC5)nc4c3)cc2)cc1`, mRNA level read “decreased” (MOLM-13; RT-qPCR, refers to: Myc and Meis1; 0.3 and 1 µM, 3 days).
With `CCn1cc(-c2cc(Cn3ccnc3)cc3c2CCN([C@H](c2cc(OC)ccn2)C2CC2)C3=O)c(C(F)(F)F)n1` the EC50 was > 30 µM (HCC70; cell growth, inhibitor; 120 h).
For `Cc1cnc(NC2CCOCC2)nc1-n1cnc(C(=O)NC(CN)c2cc(F)cc(Cl)c2)c1` (stereo not shown), “G1 phase cells” read 58.1% (MINO; flow cytometry; 1 µM, 24 h).
For `CC/C(=N\NC(=O)NCc1cccc(O)c1)c1ccc(O)c(C)c1O`, the log ratio was -2.93 (SK-OV-3; gene expression, microarray, refers to: FAM198B; 10 µM, 24 h; relative to: DMSO).
`CCCCc1oc2ccc(NS(C)(=O)=O)cc2c1C(=O)c1ccc(OCCCN(CCCC)CCCC)cc1` has a fold change of 2.2 fold (human embryonic stem cell aggregates; mRNA level, microarray, refers to: TGFB1; 0.5 µM, 120 h; relative to: untreated, down-regulated).
With `CC1(C)COc2ccc(F)cc2CN2c3nc4c(cnn4cc3OC[C@H]2C(F)F)C(=O)N1` the Emax was 76.5% (Aska-SS (ALK exon 2-17 deletion); cell viability).
The EC50 of `CCOC(=O)C1=C(C)NC2=C(C(=O)OC(c3cc(OC)c(OC)c(OC)c3)C2)C1c1ccccc1Cl` (mixture of isomers) is reported as > 20 µM (J774.A1; cytotoxicity).
With `Nc1cccc2c1CN(C1CCC(=O)NC1=O)C2=O` (stereo not shown) the EC50 was 2.13 µM (BRD4-HiBiT cells; BRD4 degradation rescue, inhibitor; 24 h, together with: dBET6 500 nM).
Under “log2 fold change”, `Cn1cc(-c2ccc(-c3cncc(Cl)c3N3CCC4(CCNC4=O)CC3)cc2)cn1` is recorded as 2.59 (COLO 205; gene expression, microarray, refers to: NLRP1 mRNA; concentration not given, 6 h; relative to: untreated cells).
For `COc1cnc2cccc(N3CCc4c(cc(Cn5ccnc5C)cc4-c4cn(C)nc4C(F)(F)F)C3=O)c2c1`, the EC50 was 1.01 µM (KP3; cell growth; 120 h).
`CC(C)(c1ccc(O)cc1)c1ccc(O)cc1`: “spheroid area increase” 121% (HepG2 spheroids; planimetry; 10 µM, 0 to 24 h; relative to: mean area of 72 h spheroids).
`Cc1cccc(-c2[nH]c(CNc3ccccc3F)nc2-c2ccc3ncnn3c2)n1` gave a viability of 44% (MM1.S pomalidomide-resistant; XTT; 2.25 µM; relative to: untreated).
`COc1cc(C(=O)Nc2cc(OCCN3CCCC3)c3ccccc3n2)nc(C(=O)Nc2cc(OCCN3CCCC3)c3ccccc3n2)c1` gave a selectivity ratio of 2.6 (HT-1080; cell viability, CellTiter-Glo; 72 h; relative to: IC50 HT-1080 over WI-38).
The viability of `Nc1cccc2c1C(=O)N(C1CCC(=O)NC1=O)C2=O` (stereo not shown) is reported as 16% and 28% and 31% (MM1.S; XTT; 1 µM).
`Cc1c(Cl)c(=O)oc2cc(OCCCCSC#N)ccc12` has a GI50 of 19 ± 9 µM (WiDr, multidrug-resistant; sulforhodamine B).
